{"data": "Measured values pooled from the literature", "note": "Protocols differ between the studies behind these lines. Values joined by “and” are separate records of one study, mostly repeats; a detail may differ."}
{"Structure (SMILES)": "CC12N3Cc4c(c(OCCCS(=O)(=O)[O-])c5ccccc5c4OCCCS(=O)(=O)[O-])CN1C(=O)N1CN4C(=O)N5Cc6c(c(OCCCS(=O)(=O)[O-])c7ccccc7c6OCCCS(=O)(=O)[O-])CN6C(=O)N(CN(C3=O)C12C)C4(C)C65C.[Na+].[Na+].[Na+].[Na+] (stereo not drawn)", "assay": "NMR", "test system": "aqueous buffer", "solubility": "343000 µM and > 300000 µM"}
{"Structure (SMILES)": "O=C(c1ccccc1)c1cc(O)c(-c2cc(Cl)cc(Cl)c2)c(O)c1", "assay": "shake flask", "test system": "aqueous buffer", "setting": "24 h, pH 7.4", "solubility": "~0.185 mg/mL"}
{"Structure (SMILES)": "C[N+](C)(C)C[C@@H](O)CC(=O)O.O=C([O-])[C@H](O)Cc1ccccc1", "test system": "water", "solubility": "1460 mg/mL"}
{"Structure (SMILES)": "N#C/C(=C\\c1ccc(N(c2ccccc2)c2ccccc2)cc1)C(=O)O", "assay": "NMR", "test system": "aqueous buffer", "solubility": "< 500 µM"}
{"Structure (SMILES)": "CC(=O)N[C@@H](CCC(N)=O)C(=O)N[C@@H](CCC(N)=O)C(=O)N[C@@H](CCCCN)C(=O)N[C@@H](Cc1ccccc1)C(=O)N[C@@H](CCC(N)=O)C(=O)O[C@@H](Cc1ccccc1)C(=O)N[C@@H](CCC(N)=O)C(=O)N[C@@H](Cc1ccccc1)C(=O)N[C@@H](CCC(=O)O)C(=O)N[C@@H](CCC(N)=O)C(=O)N[C@@H](CCC(N)=O)C(N)=O", "test system": "water", "solubility": "≥ 15000 µM"}
{"Structure (SMILES)": "Cc1sc2ncn(CC(=O)N3CCCC3)c(=O)c2c1-c1cccc(Br)c1", "test system": "aqueous buffer", "setting": "pH 7.4", "solubility": "> 100 µM"}
{"Structure (SMILES)": "CN(C1COC1)C(C)(C)/C=C(\\C#N)C(=O)N1CCC[C@H]1Cn1nc(-c2ccc(Oc3ccccc3)cc2F)c2c(N)ncnc21", "test system": "aqueous buffer", "setting": "pH 7", "solubility": "126 µM"}
{"Structure (SMILES)": "COc1cc(O)c(-c2cc(-c3cc(-c4c(O)cc(OC)c5c4C[C@@H](C)N[C@@H]5C)c4cc(C)cc(OC)c4c3O)c(O)c3c(OC)cc(C)cc23)c2c1[C@@H](C)N[C@H](C)C2", "assay": "shake flask", "test system": "PBS", "setting": "24 h, pH 6.5, 25 °C", "solubility": "200 µM"}
{"Structure (SMILES)": "CC(C)CCCC(C)CCCC(C)CCO[C@@H]1O[C@H](CO)[C@@H](O[C@H]2O[C@H](CO)[C@@H](O)[C@H](O)[C@H]2O)[C@H](O)[C@H]1O (stereo partly drawn)", "test system": "water", "setting": "15 h", "solubility": "> 1810 µM"}
{"Structure (SMILES)": "O=C(/C=C(O)/C=C/c1cccs1)/C=C/c1cccs1", "assay": "shake flask", "test system": "aqueous buffer", "setting": "24 h, pH 6.8, 37 °C", "solubility": "12.8 µM"}
{"Structure (SMILES)": "C[C@H](CCC(=O)NCCC(c1ccccc1)c1ccccc1)[C@H]1CC[C@H]2[C@@H]3CC[C@@H]4CC(=O)CC[C@]4(C)[C@H]3CC[C@]12C", "test system": "simulated gastric fluid", "setting": "48 h, pH 1, 25 °C, acidic", "solubility": "12 µM"}
{"Structure (SMILES)": "COc1ccc(Nc2nccc(-c3c[nH]nc3-c3cccnc3)n2)cc1", "test system": "aqueous buffer", "setting": "pH 7.4", "solubility": "0.0064 mg/mL"}
{"Structure (SMILES)": "Cc1c(-c2ccc(Cc3ccc(OC(F)(F)F)cc3)cc2)[nH]c2cccc(F)c2c1=O", "test system": "water", "setting": "24 h", "solubility": "0.27 µM"}
{"Structure (SMILES)": "COc1cc(-c2ccc3oc(-c4ccsc4)c(C#CC4(O)CCCCC4)c3c2)cc(OC)c1OC", "test system": "aqueous buffer", "solubility": "< 0.001 mg/mL"}
{"Structure (SMILES)": "O=C(NCCNCCO)c1cn(Cc2ccc(F)cc2)c2cc(Cl)c(OCc3ccc(C(F)(F)F)cc3)cc2c1=O", "assay": "shake flask", "test system": "PBS", "setting": "24 h, pH 6.5, 25 °C", "solubility": "< 5 µM"}
{"Structure (SMILES)": "CC(=O)c1c(O)c(C)c(O)c2c1OC1=CC(=O)/C3=C(/C)N[C@H](C(=O)O)CC1=CC=CC=C[C@@]2(C)C3=O", "assay": "HPLC", "test system": "water", "setting": "24 h, 25 °C", "solubility": "4700 µM"}
{"Structure (SMILES)": "C[n+]1cc(C(=O)NCCc2c[nH]c3ccc(NC(=O)c4cc5ccccc5[n+](C)c4)cc23)cc2ccccc21", "test system": "aqueous buffer", "setting": "pH 7.4", "solubility": "340 µM"}
{"Structure (SMILES)": "COC(=O)C(Cc1c[nH]cn1)NC(=O)C1(C)C(O)CCC2(C)C1CCC1(C)C2CC=C2C3C(C)C(C)CCC3(C)CCC21C (stereo not drawn)", "test system": "water", "setting": "25 °C", "solubility": "29.4 mg/mL"}
{"note": "Excerpt of the above:"}
{"Structure (SMILES)": "CN(C1COC1)C(C)(C)/C=C(\\C#N)C(=O)N1CCC[C@H]1Cn1nc(-c2ccc(Oc3ccccc3)cc2F)c2c(N)ncnc21", "test system": "aqueous buffer", "setting": "pH 7", "solubility": "126 µM"}
{"Structure (SMILES)": "COC(=O)C(Cc1c[nH]cn1)NC(=O)C1(C)C(O)CCC2(C)C1CCC1(C)C2CC=C2C3C(C)C(C)CCC3(C)CCC21C (stereo not drawn)", "test system": "water", "setting": "25 °C", "solubility": "29.4 mg/mL"}
